Results collected from several papers.
Protocols differ between the studies behind these lines. Values joined by “and” are separate records of one study, mostly repeats; a detail may differ. Numbers after ± are the reported error.
NECTIN4: NECTIN4 32-349 (Homo sapiens, UniProt Q96NY8)
Sequence of UniProt Q96NY8 (whole entry, looked up): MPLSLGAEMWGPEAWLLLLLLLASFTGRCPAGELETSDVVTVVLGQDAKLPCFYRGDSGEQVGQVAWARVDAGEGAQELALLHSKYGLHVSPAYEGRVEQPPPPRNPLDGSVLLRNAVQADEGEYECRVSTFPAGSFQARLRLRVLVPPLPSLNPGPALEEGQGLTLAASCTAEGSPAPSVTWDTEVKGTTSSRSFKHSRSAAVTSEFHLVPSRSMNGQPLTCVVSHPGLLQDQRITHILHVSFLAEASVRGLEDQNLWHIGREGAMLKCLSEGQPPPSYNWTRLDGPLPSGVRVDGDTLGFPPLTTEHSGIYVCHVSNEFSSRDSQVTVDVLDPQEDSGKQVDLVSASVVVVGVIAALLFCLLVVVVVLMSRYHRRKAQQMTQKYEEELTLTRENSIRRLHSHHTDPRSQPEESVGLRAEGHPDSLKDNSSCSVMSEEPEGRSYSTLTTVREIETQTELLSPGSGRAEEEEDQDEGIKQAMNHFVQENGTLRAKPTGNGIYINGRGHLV
B1: DLL4 27-400 G28S/F107L/I143F/H194Y/L206P/N257P/T271L/F280Y/S301R/Q305P (Homo sapiens, UniProt Q9NR61); sequence looked up; chain SSVFQLQLQEFINERGVLASGRPCEPGCRTFFRVCLKHFQAVVSPGPCTFGTVSTPVLGTNSFAVRDDSSGGGRNPLQLPLNFTWPGTFSLIIEAWHAPGDDLRPEALPPDALISKFAIQGSLAVGQNWLLDEQTSTLTRLRYSYRVICSDNYYGDNCSRLCKKRNDYFGHYVCQPDGNPSCLPGWTGEYCQQPICLSGCHEQNGYCSKPAECLCRPGWQGRLCNECIPHPGCRHGTCSTPWQCLCDEGWGGLYCDQDLNYCTHHSPCKNGATCRNSGPRSYTCTCRPGYTGVDCELELSECDSNPCRNGGSCKDQEDGYHCLCPPGYYGLHCEHSTLSCADSPCFNGGSCRERNQGANYACECPPNFTGSNCE
B2: STAMBPL1 264-436 (Homo sapiens, UniProt Q96FJ0); chain EGLRCVVLPEDLCHKFLQLAESNTVRGIETCGILCGKLTHNEFTITHVIVPKQSAGPDYCDMENVEELFNVQDQHDLLTLGWIHTHPTQTAFLSSVDLHTHCSYQLMLPEAIAIVCSPKHKDTGIFRLTNAGMLEVSACKKKGFHPHTKEPRLFSICKHVLVKDIKIIVLDLR
B3: ITGAV/ITGB3 ectodomain, soluble, clasped; chain 1 FNLDVDSPAEYSGPEGSYFGFAVDFFVPSASSRMFLLVGAPKANTTQPGIVEGGQVLKCDWSSTRRCQPIEFDATGNRDYAKDDPLEFKSHQWFGASVRSKQDKILACAPLYHWRTEMKQEREPVGTCFLQDGTKTVEYAPCRSQDIDADGQGFCQGGFSIDFTKADRVLLGGPGSFYWQGQLISDQVAEIVSKYDPNVYSIKYNNQLATRTAQAIFDDSYLGYSVAVGDFNGDGIDDFVSGVPRAARTLGMVYIYDGKNMSSLYNFTGEQMAAYFGFSVAATDINGDDYADVFIGAPLFMDRGSDGKLQEVGQVSVSLQRASGDFQTTKLNGFEVFARFGSAIAPLGDLDQDGFNDIAIAAPYGGEDKKGIVYIFNGRSTGLNAVPSQILEGQWAARSMPPSFGYSMKGATDIDKNGYPDLIVGAFGVDRAILYRARPVITVNAGLEVYPSILNQDNKTCSLPGTALKVSCFNVRFCLKADGKGVLPRKLNFQVELLLDKLKQKGAIRRALFLYSRSPSHSKNMTISRGGLMQCEELIAYLRDESEFRDKLTPITIFMEYRLDYRTAADTTGLQPILNQFTPANISRQAHILLDCGEDNVCKPKLEVSVDSDQKKIYIGDDNPLTLIVKAQNQGEGAYEAELIVSIPLQADFIGVVRNNEALARLSCAFKTENQTRQVVCDLGNPMKAGTQLLAGLRFSVHQQSEMDTSVKFDLQIQSSNLFDKVSPVVSHKVDLAVLAAVEIRGVSSPDHVFLPIPNWEHKENPETEEDVGPVVQHIYELRNNGPSSFSKAMLHLQWPYKYNNNTLLYILHYDIDGPMNCTSDMEINPLRIKISSLQTTEKNDTVAGQGERDHLITKRDLALSEGDIHTLGCGVAQCLKIVCQVGRLDRGKSAILYVKSLLWTETFMNKENQNHSYSLKSSASFNVIEFPYKNLPIEDITNSTLVTTNVTWGIQPAPMPV; chain 2 GPNICTTRGVSSCQQCLAVSPMCAWCSDEALPLGSPRCDLKENLLKDNCAPESIEFPVSEARVLEDRPLSDKGSGDSSQVTQVSPQRIALRLRPDDSKNFSIQVRQVEDYPVDIYYLMDLSYSMKDDLWSIQNLGTKLATQMRKLTSNLRIGFGAFVDKPVSPYMYISPPEALENPCYDMKTTCLPMFGYKHVLTLTDQVTRFNEEVKKQSVSRNRDAPEGGFDAIMQATVCDEKIGWRNDASHLLVFTTDAKTHIALDGRLAGIVQPNDGQCHVGSDNHYSASTTMDYPSLGLMTEKLSQKNINLIFAVTENVVNLYQNYSELIPGTTVGVLSMDSSNVLQLIVDAYGKIRSKVELEVRDLPEELSLSFNATCLNNEVIPGLKSCMGLKIGDTVSFSIEAKVRGCPQEKEKSFTIKPVGFKDSLIVQVTFDCDCACQAQAEPNSHRCNNGNGTFECGVCRCGPGWLGSQCECSEEDYRPSQQDECSPREGQPVCSQRGECLCGQCVCHSSDFGKITGKYCECDDFSCVRYKGEMCSGHGQCSCGDCLCDSDWTGYYCNCTTRTDTCMSSNGLLCSGRGKCECGSCVCIQPGSYGDTCEKCPTCPDACTFKKECVECKKFDRGALHDENTCNRYCRDEIESVKELKDTGKDAVNCTYKNEDDCVVRFQYYEDSSGKSILYVVEEPECPKGPD
B4: ALAS2 54-587 (Homo sapiens, UniProt P22557); chain KATKAGGDSPSWAKGHCPFMLSELQDGKSKIVQKAAPEVQEDVKAFKTDLPSSLVSVSLRKPFSGPQEQEQISGKVTHLIQNNMPGNYVFSYDQFFRDKIMEKKQDHTYRVFKTVNRWADAYPFAQHFSEASVASKDVSVWCSNDYLGMSRHPQVLQATQETLQRHGAGAGGTRNISGTSKFHVELEQELAELHQKDSALLFSSCFVANDSTLFTLAKILPGCEIYSDAGNHASMIQGIRNSGAAKFVFRHNDPDHLKKLLEKSNPKIPKIVAFETVHSMDGAICPLEELCDVSHQYGALTFVDEVHAVGLYGSRGAGIGERDGIMHKIDIISGTLGKAFGCVGGYIASTRDLVDMVRSYAAGFIFTTSLPPMVLSGALESVRLLKGEEGQALRRAHQRNVKHMRQLLMDRGLPVIPCPSHIIPIRVGNAALNSKLCDLLLSKHGIYVQAINYPTVPRGEELLRLAPSPHHSPQMMEDFVEKLLLAWTAVGLPLQDVSVAACNFCRRPVHFELMSEWERSYFGNMGPQYVTTYA
B5: CDC48A 1-190 (Arabidopsis thaliana, UniProt P54609); chain MSTPAESSDSKSKKDFSTAILERKKSPNRLVVDEAINDDNSVVSLHPATMEKLQLFRGDTILIKGKKRKDTVCIALADETCEEPKIRMNKVVRSNLRVRLGDVISVHQCPDVKYGKRVHILPVDDTVEGVTGNLFDAYLKPYFLEAYRPVRKGDLFLVRGGMRSVEFKVIETDPAEYCVVAPDTEIFCEG
B6: SIGLEC9 18-348 (Homo sapiens, UniProt Q9Y336); sequence looked up; chain QTSKLLTMQSSVTVQEGLCVHVPCSFSYPSHGWIYPGPVVHGYWFREGANTDQDAPVATNNPARAVWEETRDRFHLLGDPHTKNCTLSIRDARRSDAGRYFFRMEKGSIKWNYKHHRLSVNVTALTHRPNILIPGTLESGCPQNLTCSVPWACEQGTPPMISWIGTSVSPLDPSTTRSSVLTLIPQPQDHGTSLTCQVTFPGASVTTNKTVHLNVSYPPQNLTMTVFQGDGTVSTVLGNGSSLSLPEGQSLRLVCAVDAVDSNPPARLSLSWRGLTLCPSQPSNPGVLELPWVHLRDAAEFTCRAQNPLGSQQVYLNVSLQSKATSGVTQG
Sequence of UniProt O95347 (whole entry, looked up): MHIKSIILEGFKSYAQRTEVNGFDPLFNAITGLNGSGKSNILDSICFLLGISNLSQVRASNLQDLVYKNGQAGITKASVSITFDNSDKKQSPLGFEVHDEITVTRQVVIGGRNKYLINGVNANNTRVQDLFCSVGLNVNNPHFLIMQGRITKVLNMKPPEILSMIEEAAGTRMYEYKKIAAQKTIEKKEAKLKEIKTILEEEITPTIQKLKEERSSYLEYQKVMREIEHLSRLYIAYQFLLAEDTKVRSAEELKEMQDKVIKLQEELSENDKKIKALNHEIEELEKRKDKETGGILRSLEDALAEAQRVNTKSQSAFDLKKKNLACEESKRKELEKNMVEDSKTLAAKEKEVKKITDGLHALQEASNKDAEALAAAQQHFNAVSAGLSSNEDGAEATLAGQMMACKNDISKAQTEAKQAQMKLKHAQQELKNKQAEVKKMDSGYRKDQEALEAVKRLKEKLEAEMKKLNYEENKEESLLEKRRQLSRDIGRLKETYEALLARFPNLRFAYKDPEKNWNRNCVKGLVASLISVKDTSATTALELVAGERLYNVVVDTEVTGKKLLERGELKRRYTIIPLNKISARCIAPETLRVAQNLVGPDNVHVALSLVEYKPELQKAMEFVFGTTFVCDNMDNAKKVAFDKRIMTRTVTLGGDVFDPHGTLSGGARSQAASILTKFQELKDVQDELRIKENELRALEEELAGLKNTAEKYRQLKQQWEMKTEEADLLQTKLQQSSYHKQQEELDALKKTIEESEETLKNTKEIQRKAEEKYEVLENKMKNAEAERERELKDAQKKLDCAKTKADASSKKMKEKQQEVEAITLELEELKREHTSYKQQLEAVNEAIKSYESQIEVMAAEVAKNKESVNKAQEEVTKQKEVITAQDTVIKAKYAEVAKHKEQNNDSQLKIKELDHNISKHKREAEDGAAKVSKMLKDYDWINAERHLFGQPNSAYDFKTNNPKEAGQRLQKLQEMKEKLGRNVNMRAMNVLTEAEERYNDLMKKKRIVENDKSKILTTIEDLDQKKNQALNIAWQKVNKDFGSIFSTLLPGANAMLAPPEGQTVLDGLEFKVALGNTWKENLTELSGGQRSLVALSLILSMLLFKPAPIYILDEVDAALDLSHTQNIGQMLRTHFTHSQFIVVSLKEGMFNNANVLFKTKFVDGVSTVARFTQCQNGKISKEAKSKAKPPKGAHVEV
Sequence of UniProt Q94JZ8 (whole entry, looked up): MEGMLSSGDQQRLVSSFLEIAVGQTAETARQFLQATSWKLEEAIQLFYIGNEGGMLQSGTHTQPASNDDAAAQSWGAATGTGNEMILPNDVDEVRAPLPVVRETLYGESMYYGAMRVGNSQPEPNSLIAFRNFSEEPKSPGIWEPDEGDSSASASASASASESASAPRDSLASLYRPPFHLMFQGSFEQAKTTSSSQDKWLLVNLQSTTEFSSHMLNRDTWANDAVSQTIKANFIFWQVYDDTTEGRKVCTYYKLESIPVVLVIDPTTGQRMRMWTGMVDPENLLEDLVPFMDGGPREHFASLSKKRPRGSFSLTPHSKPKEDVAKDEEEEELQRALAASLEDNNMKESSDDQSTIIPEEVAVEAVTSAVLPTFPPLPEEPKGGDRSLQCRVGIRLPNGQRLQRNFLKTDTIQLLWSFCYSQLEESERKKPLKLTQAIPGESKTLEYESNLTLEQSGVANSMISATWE
Sequence of UniProt P46531 (whole entry, looked up): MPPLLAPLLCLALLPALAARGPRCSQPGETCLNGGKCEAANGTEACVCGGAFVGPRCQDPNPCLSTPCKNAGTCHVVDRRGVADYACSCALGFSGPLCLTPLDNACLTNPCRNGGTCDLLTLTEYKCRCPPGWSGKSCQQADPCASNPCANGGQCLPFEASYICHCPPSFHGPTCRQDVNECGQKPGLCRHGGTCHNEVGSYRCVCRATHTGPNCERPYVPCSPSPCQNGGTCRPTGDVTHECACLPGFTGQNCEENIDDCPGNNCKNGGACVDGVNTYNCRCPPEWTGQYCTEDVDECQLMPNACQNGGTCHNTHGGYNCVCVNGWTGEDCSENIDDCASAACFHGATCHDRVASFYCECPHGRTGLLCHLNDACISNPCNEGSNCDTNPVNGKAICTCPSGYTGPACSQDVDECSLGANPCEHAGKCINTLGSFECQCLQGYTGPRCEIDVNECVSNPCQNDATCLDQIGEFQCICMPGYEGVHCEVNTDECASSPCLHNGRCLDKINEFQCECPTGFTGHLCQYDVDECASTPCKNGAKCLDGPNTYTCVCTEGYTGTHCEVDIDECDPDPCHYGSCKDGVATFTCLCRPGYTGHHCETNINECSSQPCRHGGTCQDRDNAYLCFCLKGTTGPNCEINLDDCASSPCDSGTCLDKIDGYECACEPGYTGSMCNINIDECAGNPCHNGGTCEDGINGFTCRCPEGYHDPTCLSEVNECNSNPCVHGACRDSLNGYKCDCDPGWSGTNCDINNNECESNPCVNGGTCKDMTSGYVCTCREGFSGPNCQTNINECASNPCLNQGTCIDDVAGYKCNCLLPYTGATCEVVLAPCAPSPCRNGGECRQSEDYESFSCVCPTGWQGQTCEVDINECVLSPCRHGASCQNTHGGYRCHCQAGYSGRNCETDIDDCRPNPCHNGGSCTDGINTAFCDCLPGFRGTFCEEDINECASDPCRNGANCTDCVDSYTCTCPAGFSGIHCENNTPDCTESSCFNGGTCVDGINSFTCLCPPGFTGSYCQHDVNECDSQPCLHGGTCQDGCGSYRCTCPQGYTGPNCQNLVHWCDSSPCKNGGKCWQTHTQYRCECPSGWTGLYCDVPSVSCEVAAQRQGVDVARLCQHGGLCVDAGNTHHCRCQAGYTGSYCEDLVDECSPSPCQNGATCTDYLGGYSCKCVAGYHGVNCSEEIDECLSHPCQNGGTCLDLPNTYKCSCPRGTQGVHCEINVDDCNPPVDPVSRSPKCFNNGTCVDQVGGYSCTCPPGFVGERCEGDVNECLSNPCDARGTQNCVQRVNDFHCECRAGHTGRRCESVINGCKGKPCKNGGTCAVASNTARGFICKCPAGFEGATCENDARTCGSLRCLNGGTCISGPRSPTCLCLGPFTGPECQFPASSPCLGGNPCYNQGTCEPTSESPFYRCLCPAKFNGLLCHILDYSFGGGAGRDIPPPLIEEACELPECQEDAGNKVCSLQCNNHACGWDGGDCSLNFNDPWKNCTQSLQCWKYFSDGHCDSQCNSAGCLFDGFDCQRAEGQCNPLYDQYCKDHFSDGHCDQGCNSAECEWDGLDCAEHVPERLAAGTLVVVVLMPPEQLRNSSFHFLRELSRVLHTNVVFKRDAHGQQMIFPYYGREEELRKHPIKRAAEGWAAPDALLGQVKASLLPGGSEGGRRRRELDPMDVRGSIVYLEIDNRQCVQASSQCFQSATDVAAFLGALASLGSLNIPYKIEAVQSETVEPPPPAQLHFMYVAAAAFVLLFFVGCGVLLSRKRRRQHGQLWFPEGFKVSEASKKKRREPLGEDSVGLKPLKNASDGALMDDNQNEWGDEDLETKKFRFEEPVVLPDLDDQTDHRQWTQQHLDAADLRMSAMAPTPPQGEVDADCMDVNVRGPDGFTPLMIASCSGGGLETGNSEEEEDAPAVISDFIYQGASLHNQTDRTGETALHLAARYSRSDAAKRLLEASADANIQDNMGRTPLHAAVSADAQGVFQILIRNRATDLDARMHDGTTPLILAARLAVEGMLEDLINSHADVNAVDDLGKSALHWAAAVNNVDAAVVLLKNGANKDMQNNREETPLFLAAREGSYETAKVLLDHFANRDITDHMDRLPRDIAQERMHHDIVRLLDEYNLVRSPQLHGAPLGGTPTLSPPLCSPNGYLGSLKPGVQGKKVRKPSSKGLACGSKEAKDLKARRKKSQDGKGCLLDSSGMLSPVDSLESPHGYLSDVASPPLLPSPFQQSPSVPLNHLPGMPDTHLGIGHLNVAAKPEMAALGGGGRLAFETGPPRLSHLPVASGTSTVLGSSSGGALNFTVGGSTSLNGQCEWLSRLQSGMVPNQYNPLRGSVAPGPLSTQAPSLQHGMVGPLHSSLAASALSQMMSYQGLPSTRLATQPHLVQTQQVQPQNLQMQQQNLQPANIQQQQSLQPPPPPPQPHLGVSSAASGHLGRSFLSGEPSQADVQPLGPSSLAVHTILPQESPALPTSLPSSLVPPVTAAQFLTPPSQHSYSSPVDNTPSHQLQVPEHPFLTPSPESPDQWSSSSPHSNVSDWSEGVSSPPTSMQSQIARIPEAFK
Sequence of UniProt Q9NWS0 (whole entry, looked up): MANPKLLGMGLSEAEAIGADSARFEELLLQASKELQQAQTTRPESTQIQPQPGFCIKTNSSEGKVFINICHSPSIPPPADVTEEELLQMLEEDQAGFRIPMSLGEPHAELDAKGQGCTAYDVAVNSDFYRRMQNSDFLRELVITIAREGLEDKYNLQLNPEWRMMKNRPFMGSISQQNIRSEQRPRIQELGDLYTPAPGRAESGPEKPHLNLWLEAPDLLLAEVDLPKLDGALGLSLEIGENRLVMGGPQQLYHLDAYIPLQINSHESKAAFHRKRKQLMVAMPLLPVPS

B1  affinity enhancement (NOTCH1 237-549 (Homo sapiens, UniProt P46531); SPR; reference: WT DLL4, higher = tighter binding): 1030 fold
ADCYAP1 PACAP (Homo sapiens)  pKB (VIPR2 (Homo sapiens, UniProt P41587); cAMP accumulation, antagonist; Cos7; VPAC2, with: PACAP-27): 36.3 nM
LMNA (Homo sapiens, UniProt P02545)  cross-linked residues (LMNB1 (Homo sapiens, UniProt P20700); cross-linking MS; cells; with: BDP-NHP): K144 to K157
ALB (Homo sapiens, UniProt P02768)  cross-linked residues (POR (Homo sapiens, UniProt P16435); cross-linking MS; with: DSSO): K36 to K100
PSF2 (Saccharomyces cerevisiae, UniProt P40359)  interaction screen (PSF3 (Saccharomyces cerevisiae, UniProt Q12146); cross-linking MS; hits only): cross-linked
CBX3 (Homo sapiens, UniProt Q13185)  binding reduction (SUV39H1 catalytic domain, C-terminal truncation (Homo sapiens); pull-down; 6 µM, with: chaetocin 0.1 µM; higher = less binding): 23%
LPPGAVPPGARFDPFGPIGT (PSMF1 232-251 (Homo sapiens, UniProt Q92530))  IC50 (20S proteasome core particle (Homo sapiens, UniProt P28072); β2 activity inhibition, inhibitor; peptide; 10 nM, with: Boc-LRR-AMC): < 10000 nM
PLOD2 (Homo sapiens, UniProt O00469)  cross-linked residues (GAPDH (Homo sapiens, UniProt P04406); cross-linking MS; cells; with: iqPIR): K67 to K194
B2 (STAMBPL1 264-436)  kcat (Lys63-linked diubiquitin (Homo sapiens, UniProt P0CG48); Lys63 diubiquitin cleavage, SDS-PAGE; 20-100 µM, 20 °C): 10.3 s⁻¹
CDH23 EC1-2 (Anolis carolinensis)  kon (PCDH15 EC1-2 (Anolis carolinensis); SPR): 30000 M⁻¹ s⁻¹
Histone H3.1 (Homo sapiens, UniProt P68431)  interaction screen (CBX8 (Homo sapiens, UniProt Q9HC52); cross-linking MS; hits only): cross-linked
FGA (Homo sapiens, UniProt P02671)  cross-linked residues (TARS1 (Homo sapiens, UniProt P26639); cross-linking MS; with: DSSO): K195 to K28
GLP-1/MC4 receptor agonist chimeric peptide, D-Ser position 2  EC50 (GLP1R (Homo sapiens, UniProt P43220); cAMP, agonist; HEK293; FRET biosensor, stably transfected): 0.275 nM
DLDSDDEY (TELO2 488-494 (Homo sapiens); pS491)  molecule per partner (PIH1D1 51-180 (Homo sapiens, UniProt Q9NWS0); ITC; peptide): 0.7
INSR (Homo sapiens, UniProt P06213)  co-precipitation change (HSP90AA1 (Homo sapiens, UniProt P07900); co-IP; myocardium, lysate; DCM patients; reference: controls, higher = more co-precipitated): 1.4 fold
B3  EC50 (cyclic RGD peptide, disulfide-cyclized, aminocaproic acid, FITC; fluorescence polarisation; with: CaCl2 1 mM): 4.4 nM
B4 (ALAS2 54-587)  relative degradation rate (POLDIP2 52-368 H225A (Homo sapiens, UniProt Q9Y2S7); ALAS2 degradation by CLPXP; reference: wild-type POLDIP2, higher = faster degradation): < 50%
MRFEFESDASSHLNEVLTELESVELENVEYEGP (rec11 1-33 (Schizosaccharomyces pombe, UniProt Q92380); sequence looked up)  Ki (hhp1 1-296 (Schizosaccharomyces pombe, UniProt P40235); pull-down): 32000 nM
FGB (Homo sapiens, UniProt P02675)  cross-linked residues (HECW2 (Homo sapiens, UniProt Q9P2P5); cross-linking MS; with: DSSO): K77 to K198
ACTA1 (Gallus gallus, UniProt P68139)  binding event lifetime (MYH1 (Oryctolagus cuniculus, UniProt A0A5F9CQ93); laser three-bead trap; with: ATP): 31 ms and 24 ms and 52 ms and 22 ms
B5 (CDC48A 1-190)  koff (PUX7 171-468 (Arabidopsis thaliana, UniProt Q94JZ8); BLI; 25 °C): 6e-05 s⁻¹
EPHA2 fragment, auto-phosphorylated (Homo sapiens)  kon (EFNA5 (Homo sapiens, UniProt P52803); BLI; apparent): 24000 M⁻¹ s⁻¹
ACPFGCMKNWSWPIWCANK (Bicycle 72 bicyclic peptide; C-terminal amide/TATA scaffold, three cysteines cyclised)  Ki (NECTIN4; fluorescence polarisation; peptide): 65.1 nM
APVDSMLKDMATIILSTFLLIGWVAFIITYPLSMH (IRE1α 435-469; N-terminal rhodamine label)  subunits per oligomer (ERN1 435-469 peptide, N-terminal FITC (Homo sapiens); FRET; peptide): 4.33 ± 0.187
ACPFGCMKNASWPIWCTNK (Bicycle 66 bicyclic peptide; C-terminal amide/TATA scaffold, three cysteines cyclised)  Ki (NECTIN4; fluorescence polarisation; peptide): > 10000 nM
H3C1 N-terminal peptide, K14 butyryl  ΔH (KAT6A 194-323 (Homo sapiens, UniProt Q92794); ITC; pH 7.5): -1.8 kcal/mol
DYNLRB1/DYNLL1/DYNLT1/DYNC1LI2/DYNC1I2/DYNC1H1 dynein-1 complex (Homo sapiens)  Ka (KASH5/NINL chimera KASH5 CC, NINL LIC-BD, HaloTag; pull-down): > 1.6e+06 M⁻¹
ARTKQTARKSTG (histone H3 peptide 1-12; K4me1)  molecule per partner (Ehd3 417-547 Y446A (Oryza sativa, UniProt Q6ZJM9); ITC; peptide): 0.86
Cdh1/Emi1/Skp1  melting point shift (APC/C (Homo sapiens); differential scanning fluorimetry): 1.6 K
SMC2 (Homo sapiens, UniProt O95347)  cross-linked residues (SMC4 (Homo sapiens, UniProt Q9NTJ3); cross-linking MS; cells; with: iqPIR): K677 to K598
FGG (Homo sapiens, UniProt P02679)  cross-linked residues (PRRC2A (Homo sapiens, UniProt P48634); cross-linking MS; with: DSSO): K231 to K10
NSE5 (Saccharomyces cerevisiae, UniProt Q03718)  interaction screen (SMC6 (Saccharomyces cerevisiae, UniProt Q12749); cross-linking MS; hits only): cross-linked
trastuzumab IgG1 (Homo sapiens)  kon (FCGR1A (Homo sapiens, UniProt P12314); SPR): 550000 M⁻¹ s⁻¹
SDLACRLLGQSMDESGLPQLTSYDCEVNAPIQGSRNLLQGEELLRALDQVN (HIF1A 776-826 (Homo sapiens, UniProt Q16665); sequence looked up)  apparent Kd (Crebbp 340-439 (Mus musculus, UniProt P45481); competition with CITED2, competitor, fluorescence polarisation; apparent): 1100 ± 200 nM
DDB1 (Homo sapiens, UniProt Q16531)  EC50 (CDK12/CCNK; ternary complex induction by compounds, TR-FRET): > 10000 nM
MBL-A mature, hydroxylysine, hydroxyproline in collagen (Rattus norvegicus, UniProt P19999)  koff (C1S (Homo sapiens, UniProt P09871); SPR; with: CaCl2 140 mM): 0.00094 s⁻¹
B6 (SIGLEC9 18-348)  relative binding (GPNMB extracellular domain 23-498 (Homo sapiens, UniProt Q14956); BLI; Fc fusion; with: sialidase; reference: untreated GPNMB, lower = reduced binding after sialidase): 5.42 fold

For quick reference, copied from above:
LPPGAVPPGARFDPFGPIGT (PSMF1 232-251 (Homo sapiens, UniProt Q92530))  IC50 (20S proteasome core particle (Homo sapiens, UniProt P28072); β2 activity inhibition, inhibitor; peptide; 10 nM, with: Boc-LRR-AMC): < 10000 nM
PLOD2 (Homo sapiens, UniProt O00469)  cross-linked residues (GAPDH (Homo sapiens, UniProt P04406); cross-linking MS; cells; with: iqPIR): K67 to K194
